Assay results pooled from the literature.
Cell line: SW480

Compound = CCCc1c(O)c(O)cc(C(=O)O)c1COC1OC(CO)C(O)C(O)C1O (stereo not shown); test = Wnt/β-catenin signalling, RT-qPCR, measured: Wnt target genes; setting = 25 µM, 6 h; endpoint = mRNA level; result = no effect
Compound = C[N+]1(C)CC[NH2+][Pt-2]1([OH])([Cl])([Cl])[O]C(=O)CCC(=O)O; test = cell growth or viability, MTT; setting = 96 h; endpoint = IC50; result = 75 µM
Compound = COc1c(O)cc2oc3cc4c(c(O)c3c(=O)c2c1CC(O)C(C)(C)O)CC(O)O4 (stereo not shown); test = cell growth or viability; setting = 48 h; endpoint = IC50; result = > 40 µM
Compound = COC(=O)CCC(=O)[O][Pt-2]1([Cl])([Cl])([O]C)[NH2+]CC[N+]1(C)C; test = cell growth or viability, MTT; setting = 96 h; endpoint = IC50; result = 4.7 µM
Compound = O=C(/C=C/c1ccc(O)cc1)OC(CO)C(=O)O (stereo not shown); test = Wnt/β-catenin signalling, RT-qPCR, measured: Wnt target genes; setting = 25 µM, 6 h; endpoint = mRNA level; result = no effect
Compound = Cc1ccc(C(C)C)cc1.Cc1ncc(CO)c(C=NNC2=Nc3ccccc3-c3[nH]c4ccc(Br)cc4c3C2)c1O.[Cl-].[Cl][Ru+]; test = annexin V/PI flow cytometry; setting = 5 µM, 48 h, early plus late apoptosis; endpoint = apoptotic cells; result = 35%
Compound = COc1c(O)cc2oc3cc(O)c4c(c3c(=O)c2c1CCC(C)(C)O)OC(C)(C)CC4; test = cell growth or viability; setting = 48 h; endpoint = IC50; result = > 40 µM
Compound = Cc1ccc(C(C)C)cc1.Oc1ccccc1C=NNC1=Nc2ccccc2-c2[nH]c3ccc(Br)cc3c2C1.[Cl-].[Cl][Os+]; test = annexin V/PI flow cytometry; setting = 5 µM, 48 h, early plus late apoptosis; endpoint = apoptotic cells; result = 31%
Compound = CCCC(C)NC(=O)C(Nc1ccccc1C(=O)c1ccccc1)c1cn(C)c2ccccc12 (stereo not shown); test = cell growth or viability, MTT; setting = 72 h; endpoint = GI50; result = 6 µM
Compound = COc1c(OCc2ccccc2)cc2oc3cc(OCc4ccccc4)c(CC=C(C)C)c(O)c3c(=O)c2c1CC=C(C)C; test = cell growth or viability; setting = 48 h; endpoint = IC50; result = 15.8 µM

Some of these lines once more:
Compound = Cc1ccc(C(C)C)cc1.Cc1ncc(CO)c(C=NNC2=Nc3ccccc3-c3[nH]c4ccc(Br)cc4c3C2)c1O.[Cl-].[Cl][Ru+]; test = annexin V/PI flow cytometry; setting = 5 µM, 48 h, early plus late apoptosis; endpoint = apoptotic cells; result = 35%
